Results of several laboratories.
Compare with care: the assays were run in different laboratories. ± marks the error that the study gave.

| SMILES | assay | system | conditions | measurement | value |
| --- | --- | --- | --- | --- | --- |
| C[C@]12C=CC(=O)C=C1CC[C@@H]1[C@@H]2[C@@H](O)C[C@@]2(C)[C@H]1CC[C@]2(O)C(=O)CO |  | human castration-resistant prostate cancer, plasma | 10 mg daily, 48 days, two patients | plasma concentration | < 4 nM |
| O=C(O)CNC(=O)c1ccccc1[131I] |  | healthy human volunteers, plasma | two-compartment model | plasma clearance | 472 ± 108 mL/min |
| CCCCCN1C[C@H](O)[C@@H](O)[C@H](O)[C@@H]1CO | measured: ΔΔQTcF above 10 ms | human | oral | plasma concentration excluding QTcF effect | ~22000 ng/mL |
| Oc1ccc2c3c(cnc2c1)-c1ccc(C(F)(F)F)cc1O[C@@H]3c1ccc(OCCN2CC(CF)C2)cc1 |  | human, healthy female | intravenous, 45 µg, with: oral 400 mg tablets | plasma radioactivity tmax | 0.25 h |
| Cc1cn(-c2cc(NC(=O)c3ccc(C)c(Nc4nccc(-c5cccnc5)n4)c3)cc(C(F)(F)F)c2)cn1 |  | human, plasma, unbound | oral, dose not given | plasma half-life | 12.4 h |
| CS(=O)(=O)O.O=C(NC[C@H]1CN(c2ccc(N3CCNC=N3)cc2)C(=O)O1)c1ccc(Cl)s1 | mass balance | human, plasma | dose not given | plasma radioactivity as parent | 58.4% |
| CNC(=O)c1ccccc1Sc1ccc2c(/C=C/c3ccccn3)n[nH]c2c1 |  | healthy human volunteers, plasma | oral, with: ketoconazole co-administration | plasma half-life | 13.1 h |
| CC[C@H](C)[C@H](NC(=O)[C@H](Cc1ccccc1)NC(=O)[C@H](CCC(=O)O)NC(=O)[C@H](CCCCNC(=O)COCCOCCNC(=O)COCCOCCNC(=O)CC[C@H](NC(=O)CCCCCCCCCCCCCCCCC(=O)O)C(=O)O)NC(=O)[C@H](C)NC(=O)[C@H](C)NC(=O)[C@H](CCC(N)=O)NC(=O)CNC(=O)[C@H](CCC(=O)O)NC(=O)[C@H](CC(C)C)NC(=O)[C@H](Cc1ccc(O)cc1)NC(=O)[C@H](CO)NC(=O)[C@H](CO)NC(=O)[C@@H](NC(=O)[C@H](CC(=O)O)NC(=O)[C@H](CO)NC(=O)[C@@H](NC(=O)[C@H](Cc1ccccc1)NC(=O)[C@@H](NC(=O)CNC(=O)[C@H](CCC(=O)O)NC(=O)C(C)(C)NC(=O)[C@@H](N)Cc1cnc[nH]1)[C@@H](C)O)[C@@H](C)O)C(C)C)C(=O)N[C@@H](C)C(=O)N[C@@H](Cc1c[nH]c2ccccc12)C(=O)N[C@@H](CC(C)C)C(=O)N[C@H](C(=O)N[C@@H](CCCNC(=N)N)C(=O)NCC(=O)N[C@@H](CCCNC(=N)N)C(=O)NCC(=O)O)C(C)C |  | human, plasma | oral, 14 mg once daily | plasma exposure | 14.6 nM |
| CO[C@H]1/C=C/O[C@@]2(C)Oc3c(C)c(O)c4c(O)c(c(/C=N/N5CCN(C)CC5)c(O)c4c3C2=O)NC(=O)/C(C)=C\C=C\[C@H](C)[C@H](O)[C@@H](C)[C@@H](O)[C@@H](C)[C@H](OC(C)=O)[C@@H]1C |  | human, plasma | day 2 of treatment | plasma bilirubin | 14 to 29 µM |

Repeated from above:
| SMILES | assay | system | conditions | measurement | value |
| --- | --- | --- | --- | --- | --- |
| O=C(O)CNC(=O)c1ccccc1[131I] |  | healthy human volunteers, plasma | two-compartment model | plasma clearance | 472 ± 108 mL/min |
